Experimental data collected from several papers.
Protocols differ between the studies behind these lines. Values joined by “and” are separate records of one study, mostly repeats; a detail may differ. ± gives the spread as reported. Converted amounts (≈) assume the structure as drawn.

[H]/N=C(\N/C(=N/[H])NCCCCCCNC(=N)NC(=N)Nc1ccc(Cl)cc1)Nc1ccc(Cl)cc1  zone of inhibition (Streptococcus gordonii; BHI agar; 500 µg/disc): 17 ± 1.7 mm
Cc1cc(Nc2ccc(S(F)(F)(F)(F)F)cc2)n2nc(C(C)(F)F)nc2n1  time to clear 99% of initial parasitaemia (Plasmodium falciparum; infected patients; dose not given): 2 days
CC(C)c1ccc(/C=C2\N=C(SCc3ccccc3)N(c3ccccc3)C2=O)cc1  inhibition zone diameter (Bacillus cereus; ATCC 14579; concentration not given): 0 ± 0.13 mm
Cc1cc(C)c2cc(C(=O)NC3CCCCCCC3)[nH]c2c1  selectivity index (Mycobacterium abscessus; THP-1; relative to: THP-1 IC50 over MIC): > 237
Nc1ncnc2c1ncn2[C@@H]1O[C@H](CSCc2ccc3ccccc3c2)[C@@H](O)[C@H]1O  inhibition (Murine coronavirus; viral replication, outcome no inhibition; A59; 200 µM): no inhibition
O=C(O)c1ccc(O)c(O)c1  IC50 (human immunodeficiency virus 1; viral replication; TZM-bl cells, NL4-3 (CXCR4-tropic); 48 h): > 100 µM
Clc1ccc(N/N=C/c2ccc(-c3ccc(/C=N/Nc4ccc(Cl)cc4)cc3)cc2)cc1  antifungal activity (Candida and Aspergillus; concentration not given, strain panel): inactive
CC(C)c1ccc(/C=C2\N/C(=N/c3ccccc3)N(N)C2=O)cc1  inhibition zone diameter (Bacillus cereus; ATCC 14579; concentration not given): 12 ± 0.46 mm
N#Cc1cccc(-c2c(-c3ccccn3)nc3n2CCC3)c1  IC50 (Leishmania infantum; macrophages, MHOM/MA(BE)/67/ITMAP263, amastigote): 9.51 µM and 12.7 µM
N#Cc1ccc(N2CCN(S(=O)(=O)c3ccc(F)cc3)CC2)cc1NCc1ccncc1  larval mortality (Aedes aegypti; 100 µM, 24 h, first instar larvae): ~42%
CC(C)c1ccc(/C=C2\N=C(SCC(=O)O)N(c3ccccc3)C2=O)cc1  inhibition zone diameter (Bacillus cereus; ATCC 14579; concentration not given): 27 ± 0.2 mm
CC(C)n1ncc2c(C(=O)NCC3(C)CNC3)cc(C3CC3)nc21  cell protection (coxsackievirus A6; CPE; RD; 0.5 µM): 96.3% and 99.1%
COc1cccnc1-c1nc2ccccn2c1Nc1ccc(F)cc1  IC50 (Leishmania infantum; macrophages, MHOM/MA(BE)/67/ITMAP263, amastigote): 31.1 µM and 33.2 µM
COC(=O)[C@@H](CCSC)NCc1cc2ccccc2nc1SC  growth (Pseudomonas aeruginosa; 2 µg/mL, added: pentamidine 50 µM; relative to: control): 100%
O=[N+]([O-])c1ccc(N2CCN(S(=O)(=O)c3ccc(F)cc3)CC2)cc1NCc1cccnc1  larval mortality (Aedes aegypti; 100 µM, 48 h, 1 instar larvae): > 80%
OC[C@H]1O[C@@](CO)(O[C@H]2O[C@H](CO)[C@@H](O)[C@H](O)[C@H]2O)[C@@H](O)[C@@H]1O  inhibition (THP-1; pyroptotic LDH release; 2 µM, 40 min, added: LPS then nigericin): -13.5%
Fc1cc(F)cc(N/N=C/c2ccc(-c3cccc(/C=N/Nc4cc(F)cc(F)c4)c3)cc2)c1  antifungal activity (Candida and Aspergillus; concentration not given, strain panel): inactive
CCCCCCCNC1=C(n2cncn2)C(=O)c2ccccc2C1=O  zone of inhibition (Bacillus cereus; MTCC 430; 10 µg/mL): 6 mm
COc1cc2nnn(S(=O)(=O)c3ccc(N(C)C)cc3)c2cc1OC  selectivity index (Leishmania infantum; intracellular amastigote growth; U-937 macrophages and HeLa; relative to: IC50 HeLa over IC50 amastigotes): 1.6
NC(=O)c1ncn([C@@H]2O[C@H](CO)[C@@H](O)[C@H]2O)n1  inactivation activity (Tobacco mosaic virus; in vivo; 500 µg/mL): 51% and 62% and 49%
CC(C)CCC[C@@H](C)[C@H]1CC[C@H]2[C@@H]3CCC4=CC(=O)CC[C@]4(C)[C@H]3CC[C@]12C  relative potency (Leishmania mexicana; mouse bone marrow macrophages, C57BL/6 mice; intracellular amastigotes; relative to: Pentostam over compound IC50): ~100
C=CCc1cc(OC)c(O)c(C(=O)NCCO)c1  inhibition (THP-1; pyroptotic LDH release; 2 µM, 40 min, added: LPS then nigericin): 24.3%
COc1cc(C=O)ccc1OC1=C(Cl)C(=O)c2ccccc2C1=O  zone of inhibition (Bacillus cereus; MTCC 430; 10 µg/mL): 19 mm
CCc1nn(C)c2nc(-c3ccc(C(=O)O)cc3)nc(NCc3ccc(F)cc3)c12  parasite number (Cryptosporidium parvum; HCT-8; 6 x EC90, 3 h; relative to: DMSO control): 100% and 81.7% and 98.8% and 93.7%
COc1cc(C#CC(=O)c2ccccc2)ccc1O  biofilm formation (Pseudomonas aeruginosa; PA14; 10 µM, 24 h, static conditions; relative to: DMSO): 46%
Fc1ccc(Nc2c(-c3ccccn3)nc3cc(F)ccn23)cc1  IC50 (Leishmania infantum; macrophages, MHOM/MA(BE)/67/ITMAP263, amastigote): 32.2 µM and 23.9 µM
CCCCCCCCCC(=O)N[C@@H](Cc1c[nH]c2ccccc12)C(=O)N[C@H](CC(N)=O)C(=O)N[C@@H](CC(=O)O)C(=O)N[C@@H]1C(=O)NCC(=O)N[C@@H](CCCN)C(=O)N[C@@H](CC(=O)O)C(=O)N[C@H](C)C(=O)N[C@@H](CC(=O)O)C(=O)NCC(=O)N[C@H](CO)C(=O)N[C@@H]([C@H](C)CC(=O)O)C(=O)N[C@@H](CC(=O)c2ccccc2N)C(=O)O[C@@H]1C  MIC (Enterococcus; broth microdilution; VRE 155, Mueller-Hinton broth, Mg2+ 10 mg/L; 16 h, added: Ca2+ 1.0 mM): 0.5 µg/mL (≈ 0.309 µM)
O=C(O)c1cccc(Cn2ccc3ccc(-c4ccc5cc[nH]c5c4)cc32)c1  EC50 (human immunodeficiency virus 1; viral replication, MAGI cell; MAGI cells, Ba-L; CCR5-tropic): 50.1 µM
c1ccc(-c2nc3n(c2-c2ccncc2)CCC3)nc1  IC50 (Leishmania infantum; intramacrophage amastigotes, MHOM/MA(BE)/67/ITMAP263): > 64 µM
N=C(N)c1cccc(OCc2ccc(COc3cccc(C(=N)N)c3)cc2)c1  MIC in combination (Escherichia coli; ATCC 25922; concentration not given, added: rifampicin): 25 µg/mL
CC(C)C[C@H](NC(=O)OCc1ccccc1)C(=O)N[C@H](C=O)C[C@@H]1CCCNC1=O  EC50 (human rhinovirus 16; cytopathic effect, SRB; MRC5; 72 h): 6.2 ± 0.8 µM
Cc1cc(OC(C)C)ccc1C(=O)C(C)(C)NC(=O)c1sccc1C  inhibition (Botrytis cinerea; germ tube elongation; B05.10; 0.03 µg/mL): 54.1 ± 30.4%
COC[C@H]1O[C@@H]2O[C@H]3[C@H](OC)[C@@H](OC)[C@@H](O[C@H]4[C@H](OC)[C@@H](OC)[C@@H](O[C@H]5[C@H](OC)[C@@H](OC)[C@@H](O[C@H]6[C@H](OC)[C@@H](OC)[C@@H](O[C@H]7[C@H](OC)[C@@H](OC)[C@@H](O[C@H]8[C@H](OC)[C@@H](OC)[C@@H](O[C@H]1[C@H](OC)[C@H]2OC)O[C@@H]8COC)O[C@@H]7COC)O[C@@H]6COC)O[C@@H]5COC)O[C@@H]4COC)O[C@@H]3COC  inhibition (Escherichia coli; LuxR reporter, antagonist; DH5α sensor strain; 40 µM, added: OHHL 200 nM): 1 ± 3%
CC(=O)NC[C@H]1CN(c2ccc(N3CCOCC3)c(F)c2)C(=O)O1  MIC50 (Staphylococcus epidermidis; methicillin-resistant, 10 isolates; pH 8.5): 2 µg/mL (≈ 5.93 µM)
C=CC(=O)ON=C1C=CC(=C(C#N)c2ccccc2)C=C1  MFC (Candida parapsilosis; broth dilution; ATCC 22099; 48 h, 37 °C): 32 µg/mL (≈ 116 µM)
O=c1oc2c(O)c(O)cc3c(=O)oc4c(O)c(O)cc1c4c23  MBC/MIC ratio (Streptococcus gordonii; broth microdilution): 4
COc1ccc(S(=O)(=O)Nc2c(C(=O)Nc3c(C(=O)O)cc(OC)c(OC)c3OC)cc(OC)c(OC)c2OC)cc1  selectivity index (Leishmania infantum; intracellular amastigote growth; U-937 macrophages and HeLa; relative to: IC50 HeLa over IC50 amastigotes): 3.5
Nc1nc(-c2ccccc2)nc2[nH]nc(Nc3ccc(C(F)(F)F)cc3)c12  clinical score (coxsackievirus B3; 31-1-93, NMRI mice, CVB3 chronic myocarditis; oral, 100 mg/kg twice daily, day 4, dosed days 3 to 10, score scale 0 to 7; direction not given): 0.8
COc1ccn2c(Nc3ccccc3F)c(-c3ccncn3)nc2c1  IC50 (Leishmania infantum; macrophages, MHOM/MA(BE)/67/ITMAP263, amastigote): 9.51 µM and 8.64 µM
OC(Cn1cncn1)(Cn1cncn1)c1ccc(F)cc1F  zone of inhibition (Alternaria alternata; ITCC 4522; 10 µg/mL): 23 mm
Cc1ccc(-c2nc3ccccc3s2)cc1NC(=O)c1ccc(F)cc1F  EC50 (Leishmania mexicana; amastigote growth; J774.A1 macrophages): > 10 µM
CCN(c1ccc(F)cc1)c1c(-c2ccccn2)nc2ccccn12  IC50 (Leishmania infantum; macrophages, MHOM/MA(BE)/67/ITMAP263, amastigote): 1.26 µM
O=c1c(O[C@@H]2O[C@H](CO)[C@H](O)[C@H](O)[C@H]2O)c(-c2ccc(O)c(O)c2)oc2cc(O)cc(O)c12  IC50 (human immunodeficiency virus 1; viral replication; TZM-bl cells, BaL (CCR5-tropic); 48 h): > 100 µM
CC(C)CCN(c1ccc(F)cc1)c1c(-c2ccccn2)nc2ccccn12  IC50 (Leishmania infantum; macrophages, MHOM/MA(BE)/67/ITMAP263, amastigote): 0.59 µM and 0.54 µM
O=C(/C=C/c1ccc(O)c(O)c1)O[C@@H]1C[C@](O)(C(=O)O)C[C@@H](O)[C@H]1O  IC50 (human immunodeficiency virus 1; viral replication; TZM-bl cells, BaL (CCR5-tropic); 48 h): > 100 µM
FC(F)(F)c1ccc(-c2c(-c3ccccn3)nc3n2CCC3)cc1  IC50 (Leishmania infantum; macrophages, MHOM/MA(BE)/67/ITMAP263, amastigote): 1.81 µM and 1.9 µM
COc1cc(NS(=O)(=O)c2ccc([N+](=O)[O-])cc2)cc(OC)c1  selectivity index (Leishmania infantum; intracellular amastigote growth; U-937 macrophages and HeLa; relative to: IC50 HeLa over IC50 amastigotes): > 1.9
